Measured values from different studies.
Each numbered part is a random draw from the data of one study; scales do not carry over between parts.

Set 1 — technique: RNA Bind-n-Seq; molecule type: RNA; matrix: in vitro; tested at: not given; reference: input RNA pool; direction: higher = stronger binding
Target: RING finger protein unkempt homolog, zinc fingers 1-6, GST-SBP tag (UNK, Homo sapiens, UniProt Q9C0B0, residues 30-357)
Sequence of UniProt Q9C0B0 (30-357, looked up): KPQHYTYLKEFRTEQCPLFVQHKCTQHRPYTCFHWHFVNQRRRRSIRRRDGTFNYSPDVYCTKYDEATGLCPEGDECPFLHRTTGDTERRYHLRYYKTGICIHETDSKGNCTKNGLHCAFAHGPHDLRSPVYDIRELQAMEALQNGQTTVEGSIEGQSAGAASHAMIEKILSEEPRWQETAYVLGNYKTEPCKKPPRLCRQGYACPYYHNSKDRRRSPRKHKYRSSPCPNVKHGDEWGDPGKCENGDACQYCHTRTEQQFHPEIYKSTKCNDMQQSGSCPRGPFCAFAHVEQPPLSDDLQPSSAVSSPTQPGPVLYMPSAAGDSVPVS
Notes: RNA with constant flanks, human-mouse chimeric sites, ends assumed
Shared flanks, not repeated: GGGAGUUCUACAGUCCGACGAUC … CAACAGAGGAUUGAGCAUCA
Strand | bound/input enrichment
CUGUUUUGACAGCCACACAAUCUUGGCAUGUAUUAAGAAAAAAAAAAAUCCCUGUUGAAGUAGUUUUUCCACCUAUCAGCACUGAGUAAAUGCCAUAACUCCGCGGAAAUGGUCUAAAUA | 0.314 ratio
ACUCUUGACUCUUUCCAUCCUCUUCCUUUCCCUCUUGAUAUUCAAGGCCAUGAAUCCCAAAAUAACAGUCUUAGUGGCUAGCACCCAAACAGAGGUGGGUGCCAUCCACCCCAGUGUCUC | 0.475 ratio
CUAGCAGUCCAGCAGCUAGAAGGAGCCAAUUGUUUGUCACUCCACACACAGGGAAGGCGAUAACAUUGUACAUUGGUUUACAUUUUUUCCCCCUGUGGAUUUUUCUAGAGGUCAUAGUGC | 0.577 ratio
AAUUUCCUGUCAUACUUUUUAGACAUUGCCAUAGGUAUUACAGAGCAUUGGGCCUCUUUCUAGGUUUGUGUUAUUUCUCAGCUAUGGAUAUGAUCAAAUGAGAACACUGCUUAACUAAUG | 1.42 ratio
UUUGUAUUUAUGCUAAGCACGCGUGCUGGUGGUCUGGGCAUCAAUCUUGCAACUGCUGAUGUAGUCAUUUUAUAUGACUCAGAUUGGAAUCCGCAAGUAGAUCUUCAGGCUAUGGACCGU | 0.157 ratio
UCCCAAAUCCAGCAGCUCCUUGAAAUAUUGAGACAAACACUCCACACACAGGGAAGGCGAUAACAUUGUAAAUUGGUUUACAUUUUUUCCCCCUGUGGAUUUUUCUAGAGGUCAUAGUGC | 0.399 ratio
CGCUGGCCCAAGCUGAUGGACUCUGAUGGCCUCCAUCUCUCAGGCACGUGUGCCUUCUCUUAGUCCCUGUUUUCGGGAUGUUAUGAAUCUCAGUACUGUUUGACAGAAGCACCAGCUUUG | 0.133 ratio
GAAAGAGAACUAAAGCAACUAAUAGAGAAGAGGAUUGGCAAAGAGAAUUUCAUAGAGAAACUAGGAUUUAUUAGCAAAACAUGAGUUUAUUCCAGAGCGUCUCAGAAACCCCAGCCAAAC | 9.85 ratio

Set 2 — effect on: enzyme activity; action: inhibitor; tested at: 20 µM; notes: hit confirmation
Target: Replicase polyprotein 1ab, main protease (rep, Severe acute respiratory syndrome coronavirus 2, UniProt P0DTD1)
Structure (SMILES) | inhibition [%]
CCOC(=O)C1=C(C)NC(=S)NC1c1cccc(O)c1 (centres unmarked) | 17.1
N[C@@H](Cc1cc(-c2ccc(Cl)cc2Cl)cc(CP(=O)(O)O)c1O)C(=O)O | 25.4
O=C1C(CC[S+]([O-])c2ccccc2)C(=O)N(c2ccccc2)N1c1ccccc1 (centres unmarked) | 2.2

Set 3 — cell line: HEK-293T; effect on: pseudovirus infection; organism: VSV pseudotyped with SARS-CoV-2 spike; tested at: 10 µM; time: 16 h; reference: vehicle-treated
Compound | GFP-positive cells [%]
Cc1ccc(C(=O)c2ccc(CC(=O)O)n2C)cc1 | 82.8
C[C@]12CCC3=C4CCC(=O)C=C4CC[C@H]3[C@@H]1CC[C@@]2(O)CC#N | 94.9
COc1cc(C(=O)NS(=O)(=O)c2ccccc2C)ccc1Cc1cn(C)c2ccc(NC(=O)OC3CCCC3)cc12 | 86.5
C[C@]12C=CC(=O)N[C@@H]1CC[C@@H]1[C@@H]2CC[C@]2(C)[C@@H](C(=O)Nc3cc(C(F)(F)F)ccc3C(F)(F)F)CC[C@@H]12 | 97.8

Set 4 — technique: protein binding microarray; molecule type: double-stranded DNA, one strand shown; matrix: in vitro; tested at: not given; reference: not given; direction: higher = stronger binding
Target: Histone acetyltransferase KAT6A, winged helix 1, GST fusion (KAT6A, Homo sapiens, UniProt Q92794, residues 1-85)
Notes: 8-mer, flanks averaged, mean of 2 arrays, mostly near background
Residues (chain): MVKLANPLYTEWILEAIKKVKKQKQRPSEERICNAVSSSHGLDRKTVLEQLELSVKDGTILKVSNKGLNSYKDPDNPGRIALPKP
Strand | E-score
CAGCTGGC | 0.0238
AGCTACAG | -0.155
AATTATGA | 0.0709
GATGAAGA | -0.0776
ACGCAAGA | 0.0301
CAACGATC | -0.114
GATGATCC | 0.0202
ATGAGGGC | -0.107

Set 5 — technique: universal PBM; molecule type: double-stranded DNA, one strand shown; matrix: in vitro; tested at: not given; direction: higher = stronger binding
Target: Sal-like protein 4, full length isoform B (SALL4, Homo sapiens, UniProt Q9UJQ4-2, residues 1-616)
Notes: 8-mer, flanks averaged, mean of replicates
Strand | E-score
TAGGCATA | 0.146
ATCAACCA | 0.0213
GAAGGGCA | -0.194
CACGTTTA | 0.261
CATTAAAC | 0.261
ATCGGGAC | -0.201
CACGGCCG | -0.137
ATGATTAA | 0.331

Set 6 — action: inhibitor; tested at: 20 µM
Target: Replicase polyprotein 1ab, nsp13 helicase (rep, Severe acute respiratory syndrome coronavirus 2, UniProt P0DTD1)
SMILES | inhibition
c1cc(CN2CCCNCCNCCCNCC2)ccc1CN1CCCNCCNCCCNCC1 | 1.32%
Cc1c(C(=O)NN2CCOCC2)nn(-c2ccc(Cl)cc2Cl)c1-c1ccc(I)cc1 | 6.76%
O[C@@H](c1cc(C(F)(F)F)nc2c(C(F)(F)F)cccc12)[C@H]1CCCCN1 | 24.8%
C[N+](C)(C)NCCC(=O)[O-] | 7.36%
NC(=O)c1cnccn1 | 1.42%
CCCC(=O)N1CCCN(c2nc(N)c3cc(OC)c(OC)cc3n2)CC1 | 5.4%
N#CCC1(n2cc(-c3ncnc4[nH]ccc34)cn2)CN(C2CCN(C(=O)c3ccnc(C(F)(F)F)c3F)CC2)C1 | -1.42%
O=C(N[C@H]1CN2CCC1CC2)c1c[nH]c2ccsc2c1=O | 7.08%
O=C(O)CCCN1C(=O)c2cccc3cccc(c23)C1=O | -0.3%
Cc1ccc(S(=O)(=O)n2c(N)nc3ccccc32)cc1 | 4.69%
CC#CCC(C)[C@H](O)/C=C/[C@@H]1[C@H]2C/C(=C/CCCC(=O)O)C[C@H]2C[C@H]1O (some centres unmarked) | 10%
c1ccc(C(NCCNC(c2ccccc2)c2ccccc2)c2ccccc2)cc1 | 7.56%
CCN[C@@H](C)Cc1cccc(C(F)(F)F)c1 | -2.18%
COc1nccnc1NS(=O)(=O)c1ccc(N)cc1 | 7%
Cc1cc(C)cc(C(=O)NOCCCCCC(=O)NO)c1 | 7.38%
NS(=O)(=O)c1ccc(S(=O)(=O)Nc2cccc3c(Cl)c[nH]c23)cc1 | 0.64%
CCCNC(=O)N1N=C(c2ccc(N)cc2)c2cc3c(cc2C1C)OCO3 (centres unmarked) | 13%
CC(=O)Nc1ccc(S(=O)(=O)c2ccc(NC(C)=O)cc2)cc1 | 9.18%
CC(N)CCCC(C)(C)O (centres unmarked) | -0.79%
C[C@H](CS)C(=O)N1CCC[C@H]1C(=O)O | 5.68%
CCS(=O)(=O)N1CCC[C@@H]2CN3CCc4cc(OC)ccc4[C@@H]3C[C@@H]21 | 0.28%
N[C@@H]1CCN(c2cccnc2)C1 | -7.36%
Nc1ccn([C@H]2CO[C@@H](CO)S2)c(=O)n1 | 3.54%
CC(C)[C@H]1[C@@H]2CC[C@@H](C2)[C@@H]1N | 1.35%
CN(C)c1ccccc1CN1CCCN(Cc2ccccc2N(C)C)C1c1ccncc1 | 4.41%
